# Measurements of several laboratories.
SMILES,assay,test system,setting,quantity,value
C[C@@H](c1ccc2nccn2c1)n1nnc2ncc(-c3cnn(C)c3)nc21,item: treatment-related grade ≥3 Thrombocytopenia,EGFR-mutant MET-altered NSCLC,"oral, dose not given, all",patients with adverse events,1%
Cc1cc(-c2nnc(N)nc2-c2ccc(F)cc2)cc(Cl)n1,item: Hyperthyroidism,"IO-naive mCRPC patients, male","oral, dose not given, treatment-related, grade ≥3",patients with immune-mediated AE,0%
C=CC(=O)Nc1cc(Nc2nccc(-c3cn(C)c4ccccc34)n2)c(OC)cc1N(C)CCN(C)C,item: treatment-related grade ≥3 Pain,EGFR-mutant MET-altered NSCLC,"oral, dose not given, all",patients with adverse events,2%
CCOc1c([C@H](C)n2nc(C)c3c(N)ncnc32)cc(Cl)c(F)c1[C@@H]1CNC(=O)C1,item: heart rate > 100 bpm,previously treated B-cell malignancy,"oral, 20 mg once daily",patients with high heart rate,5.9%
C[C@@H](Nc1cc(F)cc(F)c1)c1cc(C(=O)N(C)C)cc2c(=O)cc(N3CCOCC3)oc12,item: Hypersensitivity,advanced solid tumour patients,"oral, dose not given, dose finding",patients discontinuing for AE,1.6%
Cc1cc(NC2CCN(C(=O)OC3CCN(C(=O)/C=C/CN(C)C)C3)CC2)n2ncc(C(C)C)c2n1 (stereo not drawn),"Phase I dose escalation CTCAE v4.0, item: abdominal distension",patients with advanced solid tumours,"dose not given, TIW dosing grade 3 or higher",patients with adverse event,0%
COc1cc(Nc2ncc3c(n2)-c2ccc(Cl)cc2C(c2c(F)cccc2OC)=NC3)ccc1C(=O)O,"item: increased AST, all grades","cancer patients, phase 1/2","oral, dose not given, with: pembrolizumab",patients with adverse event,21%
COc1cc2nccc(Oc3ccc(NC(=O)c4cc5c(n(-c6ccccc6)c4=O)CCCC5=O)nc3)c2cc1OC,,patients with relapsed/refractory AML,"oral, 6 mg once daily",patients with TEAEs,100%
CC(C)C[C@H](NC(=O)CNC(=O)c1cc(Cl)ccc1Cl)B(O)O,"item: Diarrhoea, all grades",newly diagnosed multiple myeloma patients,"oral, dose not given, maintenance phase, new onset, cycle 17 or later",patients with adverse event,33%
FC(F)(F)c1ccc(CNc2ccc(Cc3c[nH]c4ncc(Cl)cc34)cn2)cn1,item: aspartate aminotransferase increased,non-TGCT solid tumour patients,"oral, 1000 mg/day, grade 3 or higher",patients with treatment-related adverse event,4%
CNC(=O)c1cc(Oc2ccc(NC(=O)Nc3cc(C(C)(C)C)nn3-c3ccc4ncccc4c3)c(F)c2)ccn1,,patients,"oral, dose not given, cycles 1 and 2, Medium AUC subgroup",patients with visual abnormalities,29%
COc1ccc([C@@H](O)c2cc(-c3ncnc4cc(N5CCOCC5)ccc34)c(F)cc2Cl)nn1,,locally advanced rectal cancer patients,"250 mg, drug-related adverse events, with: capecitabine and radiotherapy",patients with fatigue,0%
NC(=O)N1c2ccccc2C=Cc2ccccc21,,male patients,"oral, dose not given, on-treatment adverse events",patients with abnormal dreams,0%
O=C(Nc1nc2cccc(-c3ccc(CN4CCS(=O)(=O)CC4)cc3)n2n1)C1CC1,,rheumatoid arthritis patients,"oral, 100 mg twice daily, 4 weeks, TEAE regardless of relatedness",patients with Dyspepsia,0%
CNC(=O)c1ccc(-c2cnc3ncc(Cc4ccc5ncccc5c4)n3n2)cc1F,item: Diarrhea,hepatocellular carcinoma patients,"oral, 600 mg twice daily, expansion cohort, grade 3-4",patients with adverse event,0%

# Excerpt of the above:
SMILES,assay,test system,setting,quantity,value
COc1cc2nccc(Oc3ccc(NC(=O)c4cc5c(n(-c6ccccc6)c4=O)CCCC5=O)nc3)c2cc1OC,,patients with relapsed/refractory AML,"oral, 6 mg once daily",patients with TEAEs,100%
